Results gathered from unrelated publications.
Compare with care: the assays were run in different laboratories. Several values in a cell are separate wells, animals, samples, runs or records. ± marks the error that the study gave.

O=C([O-])CN1CCN(CC(=O)[O-])CCN(CC(=O)NCC2CCC(C(=O)NC(Cc3ccc4ccccc4c3)C(=O)NCCCCC(NC(=O)NC(CCC(=O)O)C(=O)O)C(=O)O)CC2)CCN(CC(=O)[O-])CC1.[68Ga+3] (stereo not drawn): “maximum tumour uptake” 8.9 ± 0.88 %ID/g (micro-PET/CT; mouse 22Rv1 xenograft, tumour; 2 h post-injection).
The tissue/plasma ratio of O=C1NCC(COc2cccc3c(NCc4ccco4)cc(Cl)nc23)O1 (stereo not drawn) is reported as 0.447 (C57BL/6 mouse, heart; oral, 30 mg/kg, 0.5 h; reference: heart over plasma).
Nc1cccc2ccc(/C=C/C(=O)c3ccc(C(F)(F)F)cc3)cc12 has an excitation maximum of 430 nm (toluene; 20 °C).
CCCCN1C(=O)c2cccc3c(NCCCCCCN4CCOCC4)ccc(c23)C1=O gave a fluorescence lifetime of 8.4 ns (methanol).
C=C(NC(=O)c1csc(-c2nc3c(cc2O)-c2nc(cs2)C(=O)NC(C(C)O)C(=O)NC(=C(C)OC)c2nc(cs2)C(=O)NC2c4nc(cs4)C(=O)NC(COC(=O)c4c5c6c(cccc6n4O)COC(=O)C(OC4CC(C)(O)C(N(C)C)C(C)O4)C2OC5)c2nc-3cs2)n1)C(N)=O (stereo not drawn) has an AUC(0-last) of 26300 ng·h/mL (cynomolgus monkey, female, plasma; intravenous infusion, 1.5 mg/kg twice daily, 0 to 30 h).
Cc1cc(-c2ccc(C(=O)[C@@H]3CCCC[C@H]3C(=O)Nc3cnn4c3C(=O)NCC4)cc2)[nH]n1 — result for “radioactivity recovery per interval”: 2.59% and 2.73% and 2.4% and 2.39% and 2.81% and 3.06% (human, urine; oral, 200 mg, 6-12 h; reference: dose).
For CC(C(=O)O)n1nc(Cn2cc3cc(OCC[18F])c(Cl)cc3n2)c2ccccc2c1=O (racemic), the tracer uptake was 0.33 %ID/g (rat, lung; 30 min).
Under “tumour-to-small intestine ratio”, COc1cccc(OC)c1-c1cc(C(=O)NC2(C(=O)O)C3CC4CC(C3)CC2C4)nn1-c1ccc(C(=O)N(C)CCOCCOCCN(C)C(=O)[C@H](CCCCNC(=O)[C@H](CC(C)C)NC(=O)C2OC2C(=O)O)NC(=O)CN2CCN(CC(=O)[O-])CCN(CC(=O)[O-])CCN(CC(=O)[O-])CC2)cc1C(C)C.[177Lu+3] (mixture of isomers) is recorded as 18.8 (mouse HT-29 xenograft; 72 h, biodistribution; reference: tumour over small intestine).
For CC[C@H](C)[C@@H]1NC(=O)[C@H](Cc2ccc(O)cc2)NC(=O)CCCSC[C@@H](C(=O)N(CC(=O)N[C@@H](CC(C)C)C(=O)NCC(N)=O)Cc2ccc(F)cc2)NC(=O)[C@H](CC(N)=O)NC(=O)[C@H](CCC(N)=O)NC1=O, the terminal half-life was about 30 min (healthy women; intranasal).
COc1cccc(OC)c1-c1cc(C(=O)NC2(C(=O)O)C3CC4CC(C3)CC2C4)nn1-c1ccc(C(=O)N(C)CCCN(C)C(=O)[C@H](CCCCNC(=O)[C@H](CC(C)C)NC(=O)C2OC2C(=O)O)NC(=O)CN2CCN(CC(=O)[O-])CCN(CC(=O)[O-])CCN(CC(=O)[O-])CC2)cc1C(C)C.[177Lu+3] (mixture of isomers): “tumour-to-small intestine ratio” 12.2 (mouse HT-29 xenograft; 24 h, biodistribution; reference: tumour over small intestine).
COC(=O)c1ccccc1-c1c2ccc(=O)cc-2oc2c1ccc1cccc(N)c12 gave an extinction coefficient of 4000 (aqueous HCl 10% DMSO; pH 1.9).
Under “CO release quantum yield”, CCN(CC)c1ccc(-c2oc3cc4ccccc4cc3c(=O)c2O)cc1 is recorded as 0.006 (DMSO; added: visible light).
The mean SUV of O=C(Nc1cnccc1-c1ccc([18F])cc1)c1ccnc(NC(=O)C2CC2)c1 is reported as 0.14 (ex vivo gamma counting; FVB/NJ mice, both sexes, adipose tissue; intravenous, 120 min).
The recovery of C=CC(=O)Nc1cc(Nc2nccc(-c3c[nH]c4ccccc34)n2)c(OC)cc1N(C)CCN(C)C is reported as 99.8% (storage stability; human plasma; 24 h, -80 °C, LLOQ level).
With CCCC[C@H](OC(C)=O)c1ccccc1C(=O)O the steady-state clearance was 23.7 ± 2.28 mL/min/kg (beagle dog, both sexes, whole blood; intravenous, 1.5 mg/kg, day 7).
COc1cccc(OC)c1-c1cc(C(=O)NC2(C(=O)O)C3CC4CC(C3)CC2C4)nn1-c1ccc(C(=O)N(C)CCOCCN(C)C(=O)[C@H](CCCCNC(=O)[C@H](CC(C)C)NC(=O)C2OC2C(=O)O)NC(=O)CN2CCN(CC(=O)[O-])CCN(CC(=O)[O-])CCN(CC(=O)[O-])CC2)cc1C(C)C.[177Lu+3] (mixture of isomers) has a tumour-to-lung ratio of 4.99 (mouse, HT-29 xenograft; 4 h post injection, biodistribution; reference: tumour over lung uptake).
For O=C(Nc1ccc(OC(F)(F)F)cc1)NC1CCN(C(=O)C2CC2)CC1, the AUC was 6.48 µM·h (Sprague-Dawley rat, male, whole blood; oral, 0.1 mg/kg).
Cc1nc(N)nc2c1C(=O)N[C@@H](c1ccc(F)cc1-c1cccc(O[11CH3])n1)C2 gave a tracer uptake of 2.2 ± 0.3 %ID (ex vivo biodistribution; mice, U87 subcutaneous xenograft, pancreas; 60 min post-injection, baseline, vehicle pre-treatment).
O=C(c1ccccc1)N1C(c2ccc(OCC3CCN(CCCF)C3)cc2)c2ccc(O)cc2CC12CC2 (stereo not drawn): “AUC extrapolated percentage” 1.33% and 0.303% (C57BL/6J mice, plasma; oral, 25 mg/kg).
CC[C@H](C)[C@H](NC(=O)CNC(=O)[C@H](C)NC(=O)[C@H](CC(=O)O)NC(=O)[C@H](CO)NC(=O)[C@H](C)NC(=O)[C@H](CC(C)C)NC(=O)[C@H](CCCCN)NC(=O)[C@H](CCCCN)NC(=O)[C@H](CCSC)NC(=O)[C@H](CC(N)=O)NC(=O)[C@H](Cc1ccccc1)NC(=O)[C@H](CC(=O)O)NC(=O)[C@@H](N)CCSC)C(=O)N[C@@H](Cc1c[nH]c2ccccc12)C(=O)N[C@@H](Cc1ccccc1)C(=O)N[C@H](C(=O)N[C@@H](CCCNC(=N)N)C(=O)N[C@@H](C)C(=O)N[C@H](C(=O)N[C@@H](CCC(N)=O)C(=O)N[C@@H](Cc1ccccc1)C(=O)N[C@H](C(=O)N[C@@H](CCC(=O)O)C(=O)N[C@@H](CCC(=O)O)C(=O)N[C@@H](CCCCN)C(=O)N[C@@H](Cc1ccccc1)C(=O)NCC(=O)N[C@@H](CCC(N)=O)C(=O)N[C@@H](C)C(N)=O)[C@@H](C)O)C(C)C)[C@@H](C)O gave a helical content of 12% (circular dichroism; 25% DOPS/75% DOPC liposomes; 1 mM lipid).
CC(C)(O)c1ncc([S@](N)(=O)=NC(=O)Nc2c3c(cc4c2CCC4)CCC3)s1 gave a storage stability of at least 130 days (human urine; -20 °C or below).
For O=C(Nc1cnccc1-c1ccc([18F])nc1)c1ccnc(NC(=O)C2CC2)c1, the SUV was 0.079 (FVB/NJ mouse, both sexes, brain; intravenous, 20 min).
For CCC(C(=O)Nc1ccc(C(N)=O)c(F)c1)n1cc(OC)c(-c2cc(Cl)ccc2-n2cc(C(F)(F)F)nn2)cc1=O (stereo not drawn), “subjects with any adverse event” read 7.1% (male humans; oral, 50 mg, fasted).
With COc1ccnc(C(=O)N[C@H]2COC(=O)[C@H](Cc3ccccc3)[C@@H](OC(=O)C(C)C)[C@H](C)OC2=O)c1O the storage stability was 6 months (bovine muscle; -18 °C).

Repeated from above:
Under “tumour-to-small intestine ratio”, COc1cccc(OC)c1-c1cc(C(=O)NC2(C(=O)O)C3CC4CC(C3)CC2C4)nn1-c1ccc(C(=O)N(C)CCOCCOCCN(C)C(=O)[C@H](CCCCNC(=O)[C@H](CC(C)C)NC(=O)C2OC2C(=O)O)NC(=O)CN2CCN(CC(=O)[O-])CCN(CC(=O)[O-])CCN(CC(=O)[O-])CC2)cc1C(C)C.[177Lu+3] (mixture of isomers) is recorded as 18.8 (mouse HT-29 xenograft; 72 h, biodistribution; reference: tumour over small intestine).
For O=C(Nc1cnccc1-c1ccc([18F])nc1)c1ccnc(NC(=O)C2CC2)c1, the SUV was 0.079 (FVB/NJ mouse, both sexes, brain; intravenous, 20 min).
